Results from different studies.
Parts stem from different laboratories: compare values within a part only. “And” joins repeats or separate records; there may be more than shown.
Sequence of UniProt Q6ZN16 (whole entry, looked up): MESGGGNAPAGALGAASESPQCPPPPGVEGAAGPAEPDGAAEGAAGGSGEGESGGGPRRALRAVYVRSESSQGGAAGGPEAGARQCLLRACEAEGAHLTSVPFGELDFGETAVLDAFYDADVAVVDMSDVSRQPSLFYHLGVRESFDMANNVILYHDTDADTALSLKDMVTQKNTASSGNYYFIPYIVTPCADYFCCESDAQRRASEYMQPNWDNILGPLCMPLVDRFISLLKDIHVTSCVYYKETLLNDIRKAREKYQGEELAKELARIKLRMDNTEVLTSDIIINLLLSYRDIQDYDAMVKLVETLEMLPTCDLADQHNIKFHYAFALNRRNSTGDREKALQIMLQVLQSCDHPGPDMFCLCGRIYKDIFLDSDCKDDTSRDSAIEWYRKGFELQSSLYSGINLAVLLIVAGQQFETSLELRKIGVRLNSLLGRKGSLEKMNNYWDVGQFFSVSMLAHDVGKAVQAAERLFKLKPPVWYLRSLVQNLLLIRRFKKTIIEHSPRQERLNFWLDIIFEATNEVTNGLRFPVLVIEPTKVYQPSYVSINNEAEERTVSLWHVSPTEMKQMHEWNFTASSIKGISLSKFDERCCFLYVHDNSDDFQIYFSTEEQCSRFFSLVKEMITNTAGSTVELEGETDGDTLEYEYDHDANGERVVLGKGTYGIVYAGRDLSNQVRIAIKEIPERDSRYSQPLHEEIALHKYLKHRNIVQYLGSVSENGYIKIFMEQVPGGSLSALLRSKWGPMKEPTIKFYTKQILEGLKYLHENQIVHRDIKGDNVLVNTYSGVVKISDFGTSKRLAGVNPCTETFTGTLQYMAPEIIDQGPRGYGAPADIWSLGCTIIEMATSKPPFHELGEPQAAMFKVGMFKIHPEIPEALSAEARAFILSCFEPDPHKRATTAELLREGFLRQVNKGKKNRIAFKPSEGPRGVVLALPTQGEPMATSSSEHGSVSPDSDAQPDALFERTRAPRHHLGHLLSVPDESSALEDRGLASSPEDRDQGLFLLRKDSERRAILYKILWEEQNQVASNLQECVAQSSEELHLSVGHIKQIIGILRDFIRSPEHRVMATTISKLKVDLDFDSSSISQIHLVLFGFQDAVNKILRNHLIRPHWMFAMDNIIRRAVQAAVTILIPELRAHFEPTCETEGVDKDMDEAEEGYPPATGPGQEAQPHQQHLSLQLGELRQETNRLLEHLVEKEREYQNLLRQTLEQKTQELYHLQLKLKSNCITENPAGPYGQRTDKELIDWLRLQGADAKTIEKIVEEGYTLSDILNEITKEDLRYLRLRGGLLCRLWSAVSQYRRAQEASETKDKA
Sequence of UniProt Q13233 (whole entry, looked up): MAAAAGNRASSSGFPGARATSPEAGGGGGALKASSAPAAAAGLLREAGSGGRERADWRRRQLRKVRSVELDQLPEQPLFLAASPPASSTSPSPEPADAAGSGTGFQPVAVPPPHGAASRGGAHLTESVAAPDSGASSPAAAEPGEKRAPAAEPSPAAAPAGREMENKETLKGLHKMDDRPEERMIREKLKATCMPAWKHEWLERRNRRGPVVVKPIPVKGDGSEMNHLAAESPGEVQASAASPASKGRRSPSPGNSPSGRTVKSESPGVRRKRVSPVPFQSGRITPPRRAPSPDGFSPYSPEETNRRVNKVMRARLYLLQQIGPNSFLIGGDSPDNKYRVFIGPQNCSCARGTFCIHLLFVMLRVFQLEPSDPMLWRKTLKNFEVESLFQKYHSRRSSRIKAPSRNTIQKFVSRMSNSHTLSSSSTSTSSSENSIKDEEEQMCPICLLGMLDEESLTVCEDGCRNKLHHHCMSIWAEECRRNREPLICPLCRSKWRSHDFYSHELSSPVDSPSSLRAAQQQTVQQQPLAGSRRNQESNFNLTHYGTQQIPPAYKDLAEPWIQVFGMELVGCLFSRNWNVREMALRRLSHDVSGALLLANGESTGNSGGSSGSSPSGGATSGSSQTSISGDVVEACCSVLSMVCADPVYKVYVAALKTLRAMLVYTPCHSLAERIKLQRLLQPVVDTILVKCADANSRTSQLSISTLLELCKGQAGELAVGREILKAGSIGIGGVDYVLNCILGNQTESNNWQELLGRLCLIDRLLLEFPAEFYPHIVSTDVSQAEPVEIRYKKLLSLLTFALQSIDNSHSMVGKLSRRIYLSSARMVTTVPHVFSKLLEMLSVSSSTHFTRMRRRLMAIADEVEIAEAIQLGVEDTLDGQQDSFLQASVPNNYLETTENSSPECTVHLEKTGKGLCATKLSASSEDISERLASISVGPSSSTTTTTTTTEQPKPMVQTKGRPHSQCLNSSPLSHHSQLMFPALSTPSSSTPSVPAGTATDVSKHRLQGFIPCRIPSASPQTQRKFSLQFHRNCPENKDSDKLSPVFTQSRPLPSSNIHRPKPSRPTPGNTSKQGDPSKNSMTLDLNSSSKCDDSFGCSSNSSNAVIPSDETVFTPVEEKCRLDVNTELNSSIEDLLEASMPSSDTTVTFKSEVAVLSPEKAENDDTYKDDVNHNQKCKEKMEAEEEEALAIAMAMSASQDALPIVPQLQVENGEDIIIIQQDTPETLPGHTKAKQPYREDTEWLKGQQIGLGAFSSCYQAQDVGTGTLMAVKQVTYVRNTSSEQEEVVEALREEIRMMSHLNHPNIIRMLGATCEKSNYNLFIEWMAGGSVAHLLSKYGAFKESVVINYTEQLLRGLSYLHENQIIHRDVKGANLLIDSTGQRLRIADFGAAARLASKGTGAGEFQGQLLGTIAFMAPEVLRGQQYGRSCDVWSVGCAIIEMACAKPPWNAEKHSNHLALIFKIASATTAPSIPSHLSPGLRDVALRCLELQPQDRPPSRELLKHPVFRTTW
Sequence of UniProt Q13164 (whole entry, looked up): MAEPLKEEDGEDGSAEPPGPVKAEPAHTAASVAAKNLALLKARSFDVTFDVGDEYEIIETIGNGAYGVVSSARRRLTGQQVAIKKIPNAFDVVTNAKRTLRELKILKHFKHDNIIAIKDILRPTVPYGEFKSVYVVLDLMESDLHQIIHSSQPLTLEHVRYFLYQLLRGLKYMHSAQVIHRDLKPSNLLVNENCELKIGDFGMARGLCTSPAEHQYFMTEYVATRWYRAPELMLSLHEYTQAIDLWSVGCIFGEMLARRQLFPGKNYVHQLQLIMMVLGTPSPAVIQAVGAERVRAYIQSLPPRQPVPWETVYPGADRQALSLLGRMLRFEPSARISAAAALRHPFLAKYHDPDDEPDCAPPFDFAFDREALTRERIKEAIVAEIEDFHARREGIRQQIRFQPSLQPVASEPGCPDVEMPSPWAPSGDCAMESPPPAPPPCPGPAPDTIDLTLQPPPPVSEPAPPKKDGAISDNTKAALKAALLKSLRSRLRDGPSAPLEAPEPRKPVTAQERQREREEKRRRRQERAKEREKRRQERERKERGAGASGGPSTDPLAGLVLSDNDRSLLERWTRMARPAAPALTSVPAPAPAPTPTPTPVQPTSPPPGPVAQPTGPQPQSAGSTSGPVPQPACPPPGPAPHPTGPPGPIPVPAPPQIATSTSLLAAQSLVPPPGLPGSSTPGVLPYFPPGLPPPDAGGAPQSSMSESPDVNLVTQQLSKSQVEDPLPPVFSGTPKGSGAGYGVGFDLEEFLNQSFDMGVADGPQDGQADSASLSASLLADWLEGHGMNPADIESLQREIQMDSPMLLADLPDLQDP
Sequence of UniProt P00519 (whole entry, unmodified, looked up): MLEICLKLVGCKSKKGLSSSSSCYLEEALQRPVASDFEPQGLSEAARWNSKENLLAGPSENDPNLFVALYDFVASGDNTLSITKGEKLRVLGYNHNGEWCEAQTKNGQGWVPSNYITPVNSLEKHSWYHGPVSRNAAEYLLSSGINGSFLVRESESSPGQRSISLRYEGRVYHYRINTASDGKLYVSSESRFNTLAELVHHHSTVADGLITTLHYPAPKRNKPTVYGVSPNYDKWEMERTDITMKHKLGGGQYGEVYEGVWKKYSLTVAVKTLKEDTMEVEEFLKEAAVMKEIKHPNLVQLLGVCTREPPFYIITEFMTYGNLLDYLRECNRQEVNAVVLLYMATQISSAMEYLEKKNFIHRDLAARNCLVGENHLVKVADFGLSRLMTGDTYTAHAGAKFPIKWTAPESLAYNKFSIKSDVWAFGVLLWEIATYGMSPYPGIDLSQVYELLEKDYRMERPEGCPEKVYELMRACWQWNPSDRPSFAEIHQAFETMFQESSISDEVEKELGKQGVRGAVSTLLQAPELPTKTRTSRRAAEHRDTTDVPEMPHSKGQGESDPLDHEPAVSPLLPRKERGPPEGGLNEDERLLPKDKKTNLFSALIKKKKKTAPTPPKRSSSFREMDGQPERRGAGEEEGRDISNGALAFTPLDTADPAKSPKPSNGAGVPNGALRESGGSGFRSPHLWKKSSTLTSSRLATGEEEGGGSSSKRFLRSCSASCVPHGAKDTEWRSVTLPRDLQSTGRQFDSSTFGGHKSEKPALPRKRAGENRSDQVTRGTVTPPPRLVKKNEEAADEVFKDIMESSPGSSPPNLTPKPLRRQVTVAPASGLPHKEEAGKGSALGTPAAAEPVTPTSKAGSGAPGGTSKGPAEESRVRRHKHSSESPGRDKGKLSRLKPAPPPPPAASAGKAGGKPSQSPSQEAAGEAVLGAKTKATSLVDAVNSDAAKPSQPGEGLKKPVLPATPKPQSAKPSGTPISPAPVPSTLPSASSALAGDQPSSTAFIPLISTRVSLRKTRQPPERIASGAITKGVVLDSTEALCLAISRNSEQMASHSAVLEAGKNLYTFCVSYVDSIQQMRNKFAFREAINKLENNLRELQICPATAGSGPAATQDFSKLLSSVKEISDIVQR

Study 1
Structure (SMILES): O=C1CCC(N2Cc3c(ccc4c3OCC43CCN(Cc4ccccc4)CC3)C2=O)C(=O)N1 (stereo not drawn)
Sample: plasma
system | setting | plasma concentration
Sprague Dawley rat, male | intravenous, 1 mg/kg, 6 h | 28 ng/mL and 27.2 ng/mL
Sprague Dawley rat, male | oral, 3 mg/kg, 1 h | 107 ng/mL and 82.2 ng/mL
Sprague Dawley rat, male | intravenous, 1 mg/kg, 4 h | 70.6 ng/mL and 70.5 ng/mL
Sprague Dawley rat, male | intravenous, 1 mg/kg, 2 h | 101 ng/mL and 118 ng/mL
rat | intravenous, 1 mg/kg, 24 h | not detected
male ICR mice | oral, 3 mg/kg, 0.083 h | 90.6 ng/mL
male Sprague Dawley rats | oral, 3 mg/kg, 0.25 h | 33.8 ng/mL
male Sprague Dawley rats | oral, 3 mg/kg, 4 h | 229 ng/mL
male Sprague Dawley rats | intravenous, 1 mg/kg, 0.083 h | 368 ng/mL
male Sprague Dawley rats | intravenous, 1 mg/kg, 2 h | 135 ng/mL

Study 2
SMILES: Cn1cncc1[C@@](O)(COc1ccc(C#N)cc1-c1ccc(OC(F)(F)F)cc1)c1ccc(C#N)cc1
Technique: competition with immobilised ligand
Concentration: 1 µM
target | assay | remaining binding [%]
TXK (Homo sapiens, UniProt P42681) | binding | 85
TNNI3K (Homo sapiens, UniProt Q59H18) | cell-free assay | 100
Tyrosine-protein kinase ABL1, phosphorylated (ABL1, Homo sapiens, UniProt P00519, F317L) | cell-free assay | 100
MAPK7 (Homo sapiens, UniProt Q13164) | cell-free assay | 93
BMPR2 (Homo sapiens, UniProt Q13873) | cell-free assay | 100
MAP3K1 (Homo sapiens, UniProt Q13233) | cell-free assay | 100
TAOK2 (Homo sapiens, UniProt Q9UL54) | cell-free assay | 98
ERN1 (Homo sapiens, UniProt O75460) | cell-free assay | 95
DMPK (Homo sapiens, UniProt Q09013) | cell-free assay | 94
ULK3 (Homo sapiens, UniProt Q6PHR2) | cell-free assay | 78
GAK (Homo sapiens, UniProt O14976) | cell-free assay | 91
CSK (Homo sapiens, UniProt P41240) | cell-free assay | 100
MARK3 (Homo sapiens, UniProt P27448) | cell-free assay | 93
MAP3K15 (Homo sapiens, UniProt Q6ZN16) | cell-free assay | 83
Ribosomal protein S6 kinase alpha-3, C-terminal kinase domain (RPS6KA3, Homo sapiens, UniProt P51812) | cell-free assay | 72
MAP3K2 (Homo sapiens, UniProt Q9Y2U5) | cell-free assay | 100

Study 3
SMILES: CNC(=O)c1ccc(-c2cnn3ccc(C(=O)N(C)c4ccc(Cl)c(C(=O)OC)c4)cc23)cc1
Organism: Cryptosporidium parvum
Technique: time-kill
Cells: HCT-8
Strain: nanoluciferase-expressing
Relative to: DMSO control
setting | luminescence remaining
0.02743 µM, 4 h | 119% and 95.2%
0.00102 µM, 72 h | 116% and 79.2%
2.222 µM, 72 h | 10.3% and 9.78%
0.7407 µM, 72 h | 10.5% and 11.4%
0.00102 µM, 8 h | 88.2% and 82%
0.7407 µM, 24 h | 45.5% and 48%

Single results of other studies
Structure (SMILES) | target | setting | measurement | value
Cc1nc(Nc2ncc(C(=O)Nc3c(C)cccc3Cl)s2)cc(N2CCN(CCO)CC2)n1 | Dual specificity tyrosine-phosphorylation-regulated kinase 1B (DYRK1B, Homo sapiens, UniProt Q9Y463) | 1 µM | inhibition | < 50%
